Published values from different studies.
Each numbered part is a random draw from the data of one study; scales do not carry over between parts.

Sample 1 — technique: protein-binding microarray; form: double-stranded DNA, one strand shown; medium: in vitro; tested at: 0.8 µM; setting: whole 60-bp probe, no competitor; direction: higher = stronger binding; shared flanks, not repeated: … GTCTTGATTCGCTTGACGCTGCTG
Target: Centromere-binding protein 1, full length, N-terminal tag (CBF1, Saccharomyces cerevisiae, UniProt P17106, residues 1-351)
Chain of UniProt P17106 (whole entry, looked up): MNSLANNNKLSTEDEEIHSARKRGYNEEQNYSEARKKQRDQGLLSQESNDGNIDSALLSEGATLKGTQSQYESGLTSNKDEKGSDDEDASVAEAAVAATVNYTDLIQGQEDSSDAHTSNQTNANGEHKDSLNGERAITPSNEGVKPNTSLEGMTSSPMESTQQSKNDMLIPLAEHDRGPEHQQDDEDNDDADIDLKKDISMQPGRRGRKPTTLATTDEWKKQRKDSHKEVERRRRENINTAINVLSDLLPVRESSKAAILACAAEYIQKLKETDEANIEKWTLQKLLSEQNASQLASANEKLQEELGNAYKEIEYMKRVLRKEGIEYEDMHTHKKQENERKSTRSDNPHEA
Sequence | fluorescence intensity [a.u.]
CTACTTTCGCAAATTCATGTGTTTTAAGGGTAATTC | 527
GAAAGCGCTTCAGACATCAGCATGGGTTGCAAATAG | 571
GAAGATTCAAATGGTGACGTTAAAAACATGGAGTAG | 576
CTATTGTCTTTTCATGTGAGCAGAACTAAAATCTTC | 715
GAAAAATAAAAAACCCACGTAATATAGCAAAAATAG | 545
GAAATCGAAAGAAGGGGCGTGGTCAGAAGGGTATAG | 592
TGTACGAAGCTATATGTGGCAATTATAGTAGTTAGG | 519
CTATCAAAGAAAAATCACGAATTGAATAAGCTTTTC | 525
CCTAACTACTATAATTATCACATATAGCTTCGTACA | 540
GAATATCCTAACCACCACCTCAAAAAAAAAAAATAG | 561
GAAGTAAAACAGTAACACGTTAATCTTTAGAATTAG | 513
CTATTCCAGGTTGAGCGCGTGGCTTCCTATAATTTC | 601
GAAACGTAATGGAAATTCACCTGCTTTGAATCGTAG | 524
CCTAACTACTATAGTGATGTTGTATAGCTTCGTACA | 507
GAACACTAGCTTATATACGTGACTTCTGTGACTTAG | 695
GAATTTATTTTATTGCATGTGCTGTTTTCCCCATAG | 971
GAACCTACACCCCATCACCACTCACACAATAGTTAG | 524

Sample 2 — technique: protein-binding microarray; form: double-stranded DNA, one strand shown; medium: in vitro; tested at: 2200 nM top; setting: 60-bp whole probe; with: salmon DNA 0.4 mg/ml; baseline: random background probes; direction: higher = stronger binding; shared flanks, not repeated: GCCTAGCAC … GTCTTGATTCGCTTGACGCTGCTG
Target: Interferon regulatory factor 7, full length, phosphomimetic (IRF7, Homo sapiens, UniProt Q92985, residues 1-503, S471D/S472D/S475D/S476D/S477D/S483D/S484D/S487D)
Chain of UniProt Q92985 (whole entry, unmodified, looked up): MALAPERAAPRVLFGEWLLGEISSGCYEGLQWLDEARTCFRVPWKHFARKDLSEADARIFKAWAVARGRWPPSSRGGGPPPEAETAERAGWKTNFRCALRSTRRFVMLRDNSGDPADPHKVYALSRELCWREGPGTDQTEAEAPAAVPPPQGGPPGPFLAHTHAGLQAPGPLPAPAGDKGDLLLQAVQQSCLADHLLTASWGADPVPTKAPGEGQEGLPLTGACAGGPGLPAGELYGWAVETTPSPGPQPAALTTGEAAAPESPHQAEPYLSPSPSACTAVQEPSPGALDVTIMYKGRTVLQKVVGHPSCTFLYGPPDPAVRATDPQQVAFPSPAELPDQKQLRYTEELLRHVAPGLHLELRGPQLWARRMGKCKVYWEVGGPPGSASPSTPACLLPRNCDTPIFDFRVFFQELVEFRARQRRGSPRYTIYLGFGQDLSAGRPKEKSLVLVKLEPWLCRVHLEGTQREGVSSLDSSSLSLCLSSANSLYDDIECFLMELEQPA
Sequence | fitted relative affinity [z-score]
TGGTGCTTAGTATTTTTTTCCGTGCTA | 0.48
AAGACTTTCTTTCAAATGAAGTGCTAG | -0.181
GACGGTATCGGGTTCGGGACGTGCTAG | 0.753
TGCTTCCTCTTTCTCTGCTAGTGCTAG | 3.65
CTCCTAATAAATATGAGACTGTGCTAG | 0.227
TTAGATTTCAGCTTCGATTAGTGCTAG | 0.539
GGCCCTGTCCTTTTCTTTACGTGCTAG | 1.16
GACGGTATCGGGTATGGGGACGTGCTA | -0.238
TTAGCTATCGGGTTTCGATTAGTGCTA | 2.72
TCATGGCTGACTTTGGAACTGTGCTAG | -0.224
TCATCACTCAATCTCAAACTGTGCTAG | 0.901
GACGGTTTCCTACAGCTGACGTGCTAG | 1.54
GACGATAGCAGTCTCGAGACGTGCTAG | -0.11
GACCATTTCGGGACTGGAGACGTGCTA | 0.904
AGTGGGGAGGGAGAGAATCCGTGCTAG | -0.02
GACGATATCCGTCTCGAGACGTGCTAG | 0.838
GACTTTTTACCTGTGGTGTAGTGCTAG | 1.05
TCAATTTCCACTTTCTTACTGTGCTAG | 4.01

Sample 3 — technique: RNA Bind-n-Seq; form: RNA; medium: in vitro; tested at: not given; baseline: input RNA pool; direction: higher = stronger binding
Target: RING finger protein unkempt homolog, zinc fingers 1-6, GST-SBP tag (UNK, Homo sapiens, UniProt Q9C0B0, residues 30-357)
Setting: RNA with constant flanks, human-mouse chimeric sites, ends assumed
Shared flanks, not repeated: GGGAGUUCUACAGUCCGACGAUC … CAACAGAGGAUUGAGCAUCA
Target sequence (chain): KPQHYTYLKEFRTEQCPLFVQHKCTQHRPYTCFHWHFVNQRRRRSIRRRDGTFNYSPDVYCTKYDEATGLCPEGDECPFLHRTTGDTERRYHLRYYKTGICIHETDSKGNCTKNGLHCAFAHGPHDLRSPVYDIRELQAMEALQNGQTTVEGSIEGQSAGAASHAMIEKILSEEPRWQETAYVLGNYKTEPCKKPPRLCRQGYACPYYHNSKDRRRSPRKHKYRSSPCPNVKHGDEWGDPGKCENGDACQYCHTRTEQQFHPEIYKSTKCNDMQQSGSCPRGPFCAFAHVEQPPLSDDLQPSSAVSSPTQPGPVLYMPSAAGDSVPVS
Sequence | bound/input enrichment
AGAGAUAAGACAUCCAGGAACAUGCGAGGCUCCCGGAUGAAUGGACUGCCUAGCCCCACUCACAGCGCCCACUGUAGCUUCUACAGAACCAGAACCUUGCAGGCACUGAGUAAUGAGAAG | 0.137 ratio
CAGCCUCAGAGCCCAGACUUCCUGGAUAUUACCAACCCUAAAGCGGUAUUAGAAAACGCAUUGAGAAACUUCGCCUGUCUGACCACCGGAGAUGUGAUUGCUAUCAACUACAAUGAGAAG | 0.402 ratio
UCAAGGGGGCACUGCAGAGCCAUGCCUUUCCUUGACAUACAGAAAAAGCUGGGCAUCAGCCUGGACCGGCACUUUAUGUUCCUAAGCGCAGAACAGCCCUAUAAGAAGGCUGGUCGAUGC | 0.082 ratio
UUCAAAGAAAAGGGCAGCUGUGUCAUUUCAUAAGUAACUCUGGGGGAGGGAAAUUCUGUUCUUUUGUUUUUAGUUUUCCCAAAUGAAGCCAAAGUGUGUGUUGAAGAAGGAAGAAUGAAU | 0.4 ratio
GUCAACAGCUGCCUCAACCCCAUCCUCUACGCCUUCCUGGAUGAGAACUUCAAGGCCUGCUUCCGCAAGUUCUGCUGUGCUUCUGCCCUGCGCCGGGACGUGCAGGUUUCUGAUCGUGUG | 0.243 ratio
UCCCUGUUGCUGAAUAAUGAUUUGUGAAAGAAGUUUUUCCAAGCUGUAACCCAUGCUGUUAUUAUAGUUGCUGCAAAAUGUUCUUCCUGAUAUUGAUUUUAUUUGUUAACUGAAGGUCUC | 0.246 ratio
AGAAAGCAAAACUUGGAACGAUUUAAGAAAGGAGACGUAAGAUUCUUGAUUUGCACAGAUGUAGCUGCUAGAGGGAUUGAUAUCCACGGCGUUCCUUAUGUGAUCAACGUCACCCUGCCU | 0.171 ratio
CGCUUGGAUGAGGCUGGUGUCACAGAUGAAGUGCUAGAUUCUGCCAUGCAAGCCUUCCUUCUGGAGGUCAUUGUUAAACAUGGGGAGCCGGCACCUUAUUUAUGUAACAAAGAUCCGUUU | 0.1 ratio

Sample 4 — technique: RNA Bind-n-Seq; form: RNA; medium: in vitro; tested at: 200 nM; setting: whole 134-nt RNA, ends assumed; with: 150 mM LiCl; baseline: input library; direction: higher = stronger binding; each molecule: 7-deaza-guanosine replaces G
Target: Ras GTPase-activating protein-binding protein 1, full length (G3BP1, Homo sapiens, UniProt Q13283)
Chain of UniProt Q13283 (whole entry, looked up): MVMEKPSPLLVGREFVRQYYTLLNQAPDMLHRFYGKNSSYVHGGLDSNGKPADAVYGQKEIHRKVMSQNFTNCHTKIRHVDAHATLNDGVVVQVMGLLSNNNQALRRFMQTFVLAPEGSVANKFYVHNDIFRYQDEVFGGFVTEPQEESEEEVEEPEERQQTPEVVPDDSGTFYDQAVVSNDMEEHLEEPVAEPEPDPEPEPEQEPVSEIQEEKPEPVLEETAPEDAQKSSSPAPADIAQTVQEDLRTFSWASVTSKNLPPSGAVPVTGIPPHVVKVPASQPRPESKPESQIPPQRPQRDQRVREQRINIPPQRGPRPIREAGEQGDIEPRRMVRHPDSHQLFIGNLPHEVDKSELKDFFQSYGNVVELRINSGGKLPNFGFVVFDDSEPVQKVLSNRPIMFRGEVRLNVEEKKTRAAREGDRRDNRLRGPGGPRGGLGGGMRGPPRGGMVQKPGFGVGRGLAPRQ
Shared flanks, not repeated: GGGAGUUCUACAGUCCGACGAUC … UGGAAUUCUCGGGUGUCAAGG
Sequence | log2 enrichment
ACCAUGCAGGUGGGCAUAUUUGGGAAGUGGGGCAAGGGGGGGAUAGGGAGGGGGGUAACACUUUGGGAACAGGUGGUCCCAGGUCGUUUC | 0.143
UCAAGUCCUGUGCUACACAUCGUAUGUACCGAAUCGUGUGUGUGUGUGUGUGUGUAAAGUAUUAUGUUACGCCGUUCGGAUCUGCACUUC | -0.748
UAAGGCCAGUAAAAUUUUAGUACCUGGAGGUUUGACUCUAAUUUUUGCACUGAUGGUGCCAAAGGGCCCUGAGUCAAAAGGAUAGCCAAG | -2.58
GCAGGAAGUAAAAACAAAUGGAAAUGCUUCGGAUAGUGGCAGGGGUGGGGGUUGCUAAGGAAAGGGUGAAAUGGGAGUGGGUAAAGAGUU | 0.229
CCUGUGCUACACAUCGUAUGUACCGAAUCGGGGCCCCCCGGGCCCCCCGGGCCCCCCGGGAAAGUAUUAUGUUACGCCGUUCGGAUCUGC | -1.01
UCCUGUGCUACACAUCGUAUGUACCGAAUCGGGAAAAAGGGAAAAAGGGAAAAAAAGGGAAAGUAUUAUGUUACGCCGUUCGGAUCUGCA | 0.489
GUCCUGUGCUACACAUCGUAUGUACCGAAUCGGGAAAAAGGGUUUUUUUGGGUUUGGGAAAGUAUUAUGUUACGCCGUUCGGAUCUGCAC | -2.32
UUCUCCUGCCCCGAAGCUCGCUGUGCGUGUGCGUGUGUGUGUCCCUCCGCCAACGCCGCCACCUCAGCCCGGCAAAUGAACUCCGUCCGA | -0.516

A few entries again (sample 4):
Sequence | log2 enrichment
GUCCUGUGCUACACAUCGUAUGUACCGAAUCGGGAAAAAGGGUUUUUUUGGGUUUGGGAAAGUAUUAUGUUACGCCGUUCGGAUCUGCAC | -2.32
ACCAUGCAGGUGGGCAUAUUUGGGAAGUGGGGCAAGGGGGGGAUAGGGAGGGGGGUAACACUUUGGGAACAGGUGGUCCCAGGUCGUUUC | 0.143
CCUGUGCUACACAUCGUAUGUACCGAAUCGGGGCCCCCCGGGCCCCCCGGGCCCCCCGGGAAAGUAUUAUGUUACGCCGUUCGGAUCUGC | -1.01
UCCUGUGCUACACAUCGUAUGUACCGAAUCGGGAAAAAGGGAAAAAGGGAAAAAAAGGGAAAGUAUUAUGUUACGCCGUUCGGAUCUGCA | 0.489
UAAGGCCAGUAAAAUUUUAGUACCUGGAGGUUUGACUCUAAUUUUUGCACUGAUGGUGCCAAAGGGCCCUGAGUCAAAAGGAUAGCCAAG | -2.58
